Published values of several laboratories.
Protocols differ between the studies behind these lines. Numbers after ± are the reported error.
NR3C1: Glucocorticoid receptor (NR3C1, Homo sapiens, UniProt P04150)

The chains behind the UniProt entries cited, without tags or fusion partners.
UniProt P04150, whole entry: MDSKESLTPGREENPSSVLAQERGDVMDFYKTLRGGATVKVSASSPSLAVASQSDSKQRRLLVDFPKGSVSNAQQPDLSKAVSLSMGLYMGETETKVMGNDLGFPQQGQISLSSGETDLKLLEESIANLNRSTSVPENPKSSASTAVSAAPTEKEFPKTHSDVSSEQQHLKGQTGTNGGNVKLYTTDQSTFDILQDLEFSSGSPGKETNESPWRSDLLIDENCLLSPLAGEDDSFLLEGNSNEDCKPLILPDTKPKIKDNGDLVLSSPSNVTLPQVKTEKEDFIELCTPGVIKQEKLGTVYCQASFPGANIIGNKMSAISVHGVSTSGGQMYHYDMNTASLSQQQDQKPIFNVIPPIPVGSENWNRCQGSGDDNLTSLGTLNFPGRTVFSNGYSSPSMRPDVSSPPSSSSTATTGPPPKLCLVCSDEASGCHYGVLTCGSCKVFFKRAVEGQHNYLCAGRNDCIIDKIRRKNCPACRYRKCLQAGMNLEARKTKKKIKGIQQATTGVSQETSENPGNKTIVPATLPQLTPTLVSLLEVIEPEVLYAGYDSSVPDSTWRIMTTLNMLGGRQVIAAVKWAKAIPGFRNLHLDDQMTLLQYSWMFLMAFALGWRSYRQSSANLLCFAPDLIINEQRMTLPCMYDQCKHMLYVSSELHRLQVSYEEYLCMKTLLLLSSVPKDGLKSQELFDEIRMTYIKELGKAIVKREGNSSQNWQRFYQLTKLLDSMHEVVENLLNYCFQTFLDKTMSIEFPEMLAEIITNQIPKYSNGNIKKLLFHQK
UniProt O94804, whole entry: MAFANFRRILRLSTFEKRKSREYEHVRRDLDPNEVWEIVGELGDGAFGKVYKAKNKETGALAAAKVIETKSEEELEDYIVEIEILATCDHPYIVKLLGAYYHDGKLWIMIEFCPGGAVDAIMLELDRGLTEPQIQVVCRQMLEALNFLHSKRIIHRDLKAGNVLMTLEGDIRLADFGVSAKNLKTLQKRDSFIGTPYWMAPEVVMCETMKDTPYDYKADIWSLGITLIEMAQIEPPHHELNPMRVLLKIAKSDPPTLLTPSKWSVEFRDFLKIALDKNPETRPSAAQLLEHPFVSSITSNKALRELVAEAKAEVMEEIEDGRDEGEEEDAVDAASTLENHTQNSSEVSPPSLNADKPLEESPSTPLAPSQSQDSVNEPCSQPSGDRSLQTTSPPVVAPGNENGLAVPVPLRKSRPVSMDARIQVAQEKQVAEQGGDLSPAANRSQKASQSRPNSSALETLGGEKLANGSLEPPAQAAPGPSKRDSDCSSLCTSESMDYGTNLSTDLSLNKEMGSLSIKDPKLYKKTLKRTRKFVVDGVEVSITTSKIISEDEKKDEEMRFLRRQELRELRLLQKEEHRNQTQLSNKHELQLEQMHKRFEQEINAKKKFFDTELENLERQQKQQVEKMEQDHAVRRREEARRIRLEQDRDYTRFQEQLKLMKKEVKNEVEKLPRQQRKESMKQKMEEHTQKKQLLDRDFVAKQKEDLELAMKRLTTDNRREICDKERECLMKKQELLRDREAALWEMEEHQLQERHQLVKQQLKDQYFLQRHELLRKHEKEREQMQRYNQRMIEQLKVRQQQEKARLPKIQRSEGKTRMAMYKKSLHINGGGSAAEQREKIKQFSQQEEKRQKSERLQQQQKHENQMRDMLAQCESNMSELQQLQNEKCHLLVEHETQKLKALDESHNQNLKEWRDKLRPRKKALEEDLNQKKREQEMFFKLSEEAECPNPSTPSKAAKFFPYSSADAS

O=C1C=C(NCCc2cc(Br)c(O)c(Br)c2)C(=O)c2ncccc21
metastatic foci number (SCID/Beige mice, MNNG-HOS lung metastasis, lung; dose not given): no effect

O=C(/C=C/c1nc2ccccc2[nH]1)c1c(-c2ccccc2)c2cc(Cl)ccc2[nH]c1=O
tumour growth (nude mouse, SK-MEL-5 xenograft; oral gavage, dose not given): no effect

CCCCCCCCCCCCCC=C[C@@H](O)[C@H](CO[C@@H]1O[C@H](CO)[C@@H](O[C@@H]2O[C@H](CO)[C@H](O)[C@H](O[C@]3(C(=O)O)C[C@H](O)[C@@H](NC(C)=O)[C@H]([C@H](O)[C@@H](CO)O[C@]4(C(=O)O)C[C@H](O)[C@@H](NC(C)=O)[C@H]([C@H](O)[C@H](O)CO)O4)O3)[C@H]2O)[C@H](O)[C@H]1O)NC(=O)CCCCCCCCCCCCCCCCC
serum IL-12 level (C57BL/6 mouse, serum; intravenous, dose not given, added: α-GalCer 1 µg): inhibited

O=C(Nc1cccnn1)N1CC(Oc2ccc(-c3ccccc3F)cn2)C1
plasma concentration of compound (refers to: plasma AEA, OEA and PEA; human, plasma; oral, at maximum increase in endocannabinoids, repeated dosing): ≥ 300 ng/mL

COc1cc(CC(=O)NCC(NC(=O)C(CCCNC(=O)c2cccc(I)c2)NC(=O)C(Cc2ccc(C(F)(F)P(=O)(O)O)cc2)NC(=O)c2ccc(C)c(Br)c2)C(N)=O)ccc1O (centres unmarked)
Akt Ser473 phosphorylation increase (immunoblot; diet-induced obese mouse, liver, muscle, white adipose; 2 weeks, added: insulin bolus, 3 min): 40 to 60%

Cc1ccc([C@H](CC(=O)O)NC(=O)Nc2c(O)c(C)cn(Cc3ccccc3Cl)c2=O)cc1
B-ALL cells (refers to: hCD45+ hCD19+; LAX7R xenograft, NSG mouse, peripheral blood; 60 mg/kg, 36 h, 0.5% leukemic cells at start; relative to: PBS): decreased

COc1ccc(N2C(=O)N(c3c(C)cccc3Cl)Cc3cnc(Nc4ccc(N5CCN(C)CC5)cc4OC)nc32)nc1
EC50 (IL-10 production; bone marrow-derived dendritic cells, mouse; added: zymosan A): 0.07 ± 0.04 µM

C[C@H]1CCCN1Cc1cc2cnc(NC(=O)c3ccc4c(cnn4C)c3)cc2[nH]1
human CD45+ leukaemia cells (MV4;11 cells, NSG mouse, disseminated xenograft, peripheral blood; dose not given, day 49 post transplantation): 0 to 1.6%

CCN1CCN(Cc2ccc(NC(=O)c3ccc(C)c(Oc4ncnc5cc(OC)c(OC)cc45)c3)cc2C(F)(F)F)CC1
residual probe binding (Serine/threonine-protein kinase 10 (STK10, Homo sapiens, UniProt O94804); KINOMEscan competition binding; 1.0 µM): 0%

C[C@@]12C[C@H](O)C3[C@H](CCC4=CC(=O)CC[C@]43C)[C@H]1CC[C@@H]2c1csc(-c2ccccc2)n1 (some centres unmarked)
EC50 (NR3C1; nuclear translocation, agonist, enzyme fragment complementation): > 9 µM

COc1ccc(OC[C@H]2c3cccn3CC(=O)N2Cc2cccc(F)c2)cc1
NMDAR EPSC peak amplitude (CA1 stratum radiatum interneurons, mouse wild type P11-15, hippocampal slice; 10 µM): -93 ± 58 pA

COc1cccc(Cc2c(C)c(C)nn(CC(=O)Nc3ccc(Br)cc3)c2=O)c1
weight bearing difference (incapacitance test; rat, CFA-induced arthritis; oral, 30 mg/kg, day 14, 15 to 60 min): 48.1 ± 1.05 g

C[C@@]12CC[C@H](O[C@@H]3O[C@H](CO)[C@@H](O)[C@H](O)[C@@H]3O)C[C@@H]1CC[C@H]1[C@H]2CC[C@@]2(C)[C@@H](C3=CCOC3=O)CC[C@]12O
EC50 (NR3C1; nuclear translocation, agonist, enzyme fragment complementation): > 9 µM

Cc1c(O)cc2c(c1C)O[C@](C)(CCCC(C)C)CC2
phosphorylation (refers to: Akt Ser473, MDM2, IKKα; athymic nude mouse, LNCaP-abl xenograft, tumour; intraperitoneal, 50 mg/kg daily, 21 days): decreased

Repeated from above:
CCN1CCN(Cc2ccc(NC(=O)c3ccc(C)c(Oc4ncnc5cc(OC)c(OC)cc45)c3)cc2C(F)(F)F)CC1
residual probe binding (Serine/threonine-protein kinase 10 (STK10, Homo sapiens, UniProt O94804); KINOMEscan competition binding; 1.0 µM): 0%
